Experimental data gathered from unrelated publications.
Each numbered part is a random draw from the data of one study; scales do not carry over between parts. Values joined by “and” are separate records of one study, mostly repeats; a detail may differ.
UniProt Q9HC98, sequence (whole entry, looked up): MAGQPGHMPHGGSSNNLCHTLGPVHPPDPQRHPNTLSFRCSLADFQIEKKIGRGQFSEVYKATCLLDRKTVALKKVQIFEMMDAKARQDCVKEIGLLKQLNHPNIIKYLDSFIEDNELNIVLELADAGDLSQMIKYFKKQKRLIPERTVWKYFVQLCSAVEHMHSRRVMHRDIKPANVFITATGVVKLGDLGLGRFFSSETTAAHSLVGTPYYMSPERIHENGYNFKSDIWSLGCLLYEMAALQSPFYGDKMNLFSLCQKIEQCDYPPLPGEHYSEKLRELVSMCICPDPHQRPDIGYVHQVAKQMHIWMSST
UniProt O95835, sequence (whole entry, looked up): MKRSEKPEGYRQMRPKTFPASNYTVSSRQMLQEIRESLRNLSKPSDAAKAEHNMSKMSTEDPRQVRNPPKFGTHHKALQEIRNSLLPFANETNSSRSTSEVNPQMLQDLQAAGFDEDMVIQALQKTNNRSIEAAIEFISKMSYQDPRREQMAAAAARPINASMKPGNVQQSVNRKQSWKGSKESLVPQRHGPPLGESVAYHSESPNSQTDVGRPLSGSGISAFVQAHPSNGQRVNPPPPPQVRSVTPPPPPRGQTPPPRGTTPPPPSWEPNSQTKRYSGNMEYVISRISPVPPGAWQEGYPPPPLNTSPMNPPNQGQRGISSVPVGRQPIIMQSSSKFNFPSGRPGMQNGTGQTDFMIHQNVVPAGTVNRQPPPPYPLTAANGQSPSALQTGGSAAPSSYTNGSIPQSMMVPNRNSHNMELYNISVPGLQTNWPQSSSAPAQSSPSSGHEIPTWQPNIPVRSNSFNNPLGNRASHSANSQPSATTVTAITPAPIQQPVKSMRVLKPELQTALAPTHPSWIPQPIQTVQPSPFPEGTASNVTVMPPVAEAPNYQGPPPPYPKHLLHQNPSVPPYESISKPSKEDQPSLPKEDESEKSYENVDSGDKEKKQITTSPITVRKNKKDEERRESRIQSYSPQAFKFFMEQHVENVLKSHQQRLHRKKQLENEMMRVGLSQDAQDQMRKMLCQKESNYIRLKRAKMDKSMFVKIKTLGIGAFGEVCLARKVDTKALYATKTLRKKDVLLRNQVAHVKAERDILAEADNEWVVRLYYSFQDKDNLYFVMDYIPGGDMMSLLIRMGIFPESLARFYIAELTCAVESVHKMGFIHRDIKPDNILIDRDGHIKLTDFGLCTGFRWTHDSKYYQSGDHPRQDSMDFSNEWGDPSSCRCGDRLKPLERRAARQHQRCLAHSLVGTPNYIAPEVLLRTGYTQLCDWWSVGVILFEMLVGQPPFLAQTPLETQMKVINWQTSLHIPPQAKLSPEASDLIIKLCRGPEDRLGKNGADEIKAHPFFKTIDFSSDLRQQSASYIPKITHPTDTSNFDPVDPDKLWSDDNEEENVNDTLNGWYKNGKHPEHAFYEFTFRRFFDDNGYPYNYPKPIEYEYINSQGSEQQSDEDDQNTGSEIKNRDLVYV
UniProt Q06418, sequence (whole entry, looked up): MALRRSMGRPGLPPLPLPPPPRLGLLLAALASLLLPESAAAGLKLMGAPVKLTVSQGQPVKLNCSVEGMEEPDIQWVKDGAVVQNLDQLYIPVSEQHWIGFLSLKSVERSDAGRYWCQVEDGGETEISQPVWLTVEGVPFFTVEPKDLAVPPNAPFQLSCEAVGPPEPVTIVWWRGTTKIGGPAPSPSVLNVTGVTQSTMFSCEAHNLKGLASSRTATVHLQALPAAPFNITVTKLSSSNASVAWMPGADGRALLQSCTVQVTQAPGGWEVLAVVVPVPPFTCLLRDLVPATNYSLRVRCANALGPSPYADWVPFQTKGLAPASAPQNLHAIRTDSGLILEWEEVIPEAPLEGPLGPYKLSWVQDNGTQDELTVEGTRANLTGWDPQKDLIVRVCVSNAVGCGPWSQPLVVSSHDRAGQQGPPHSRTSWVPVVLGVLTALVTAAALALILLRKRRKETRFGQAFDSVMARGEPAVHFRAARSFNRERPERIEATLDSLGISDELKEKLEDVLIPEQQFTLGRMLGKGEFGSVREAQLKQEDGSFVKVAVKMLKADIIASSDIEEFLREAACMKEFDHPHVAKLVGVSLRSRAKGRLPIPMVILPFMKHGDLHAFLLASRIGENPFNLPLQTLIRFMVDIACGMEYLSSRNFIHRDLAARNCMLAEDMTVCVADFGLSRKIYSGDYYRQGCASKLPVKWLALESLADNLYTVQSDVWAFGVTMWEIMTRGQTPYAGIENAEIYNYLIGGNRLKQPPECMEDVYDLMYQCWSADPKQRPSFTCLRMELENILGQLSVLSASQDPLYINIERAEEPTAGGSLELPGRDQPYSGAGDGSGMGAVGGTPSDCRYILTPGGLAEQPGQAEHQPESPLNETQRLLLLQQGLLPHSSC
UniProt Q02763, sequence (whole entry, looked up): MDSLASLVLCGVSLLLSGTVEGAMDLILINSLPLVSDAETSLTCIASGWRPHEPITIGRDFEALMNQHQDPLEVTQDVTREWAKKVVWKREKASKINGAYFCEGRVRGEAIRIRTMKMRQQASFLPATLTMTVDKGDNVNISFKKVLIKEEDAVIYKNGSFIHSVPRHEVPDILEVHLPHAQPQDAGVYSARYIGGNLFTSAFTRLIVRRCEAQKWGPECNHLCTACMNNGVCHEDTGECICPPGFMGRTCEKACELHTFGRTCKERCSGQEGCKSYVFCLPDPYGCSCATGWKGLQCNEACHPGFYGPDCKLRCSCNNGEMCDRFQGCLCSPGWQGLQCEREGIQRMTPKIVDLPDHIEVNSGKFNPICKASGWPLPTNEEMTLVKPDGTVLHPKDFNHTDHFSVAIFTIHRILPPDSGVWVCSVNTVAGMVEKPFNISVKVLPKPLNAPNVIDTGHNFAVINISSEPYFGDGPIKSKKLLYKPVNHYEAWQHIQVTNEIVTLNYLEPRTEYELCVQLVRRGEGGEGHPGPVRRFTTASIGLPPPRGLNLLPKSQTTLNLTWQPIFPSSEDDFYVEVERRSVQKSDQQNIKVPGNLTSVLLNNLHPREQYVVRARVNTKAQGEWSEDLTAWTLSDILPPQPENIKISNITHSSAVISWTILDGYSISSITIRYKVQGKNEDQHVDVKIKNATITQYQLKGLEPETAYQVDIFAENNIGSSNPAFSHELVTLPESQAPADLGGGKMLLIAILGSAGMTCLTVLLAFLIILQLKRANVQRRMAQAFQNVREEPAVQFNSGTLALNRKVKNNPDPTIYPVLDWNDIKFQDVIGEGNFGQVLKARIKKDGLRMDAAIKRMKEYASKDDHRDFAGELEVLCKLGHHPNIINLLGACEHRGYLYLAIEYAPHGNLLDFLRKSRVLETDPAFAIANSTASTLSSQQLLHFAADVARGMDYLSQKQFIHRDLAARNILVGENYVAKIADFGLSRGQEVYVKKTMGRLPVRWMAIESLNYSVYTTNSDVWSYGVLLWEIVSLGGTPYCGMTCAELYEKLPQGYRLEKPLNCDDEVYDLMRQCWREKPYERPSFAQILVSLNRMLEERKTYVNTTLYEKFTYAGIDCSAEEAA
UniProt Q86YV6, sequence (whole entry, looked up): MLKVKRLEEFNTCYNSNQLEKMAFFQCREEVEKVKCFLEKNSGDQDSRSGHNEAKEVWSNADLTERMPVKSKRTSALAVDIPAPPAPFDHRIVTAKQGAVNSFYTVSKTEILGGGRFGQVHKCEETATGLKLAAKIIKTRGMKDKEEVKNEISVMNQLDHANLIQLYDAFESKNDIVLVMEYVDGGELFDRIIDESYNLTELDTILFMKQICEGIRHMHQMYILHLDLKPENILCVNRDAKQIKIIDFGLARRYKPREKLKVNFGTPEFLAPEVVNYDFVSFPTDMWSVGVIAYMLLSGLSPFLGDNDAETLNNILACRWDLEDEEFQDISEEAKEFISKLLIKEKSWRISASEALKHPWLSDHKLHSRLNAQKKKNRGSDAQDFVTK
UniProt P78368, sequence (whole entry, looked up): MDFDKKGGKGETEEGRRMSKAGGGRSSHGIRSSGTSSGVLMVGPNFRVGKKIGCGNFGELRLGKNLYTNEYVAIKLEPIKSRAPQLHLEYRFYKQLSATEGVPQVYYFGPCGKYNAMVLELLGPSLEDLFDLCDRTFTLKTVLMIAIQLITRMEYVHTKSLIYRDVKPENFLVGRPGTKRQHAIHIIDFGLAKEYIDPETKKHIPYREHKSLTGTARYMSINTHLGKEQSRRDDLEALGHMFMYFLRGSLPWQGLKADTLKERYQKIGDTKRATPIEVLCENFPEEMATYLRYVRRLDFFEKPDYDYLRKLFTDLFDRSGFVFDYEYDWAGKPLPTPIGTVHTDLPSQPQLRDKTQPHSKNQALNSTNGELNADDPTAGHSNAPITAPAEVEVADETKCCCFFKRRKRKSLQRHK

Series 1
Compound: C=CC(=O)N1CCC[C@@H](n2nc(-c3ccc(Oc4ccccc4)cc3)c3c(N)ncnc32)C1
Mode: inhibitor
Tested at: 1 µM
target	observed	inhibition [%]
ACVRL1 (Homo sapiens, UniProt P37023)	enzyme activity	1
NEK6 (Homo sapiens, UniProt Q9HC98)	enzyme activity	13
TYRO3 (Homo sapiens, UniProt Q06418)		76
CSNK2A1 (Homo sapiens, UniProt P68400)	enzyme activity	24
TNIK (Homo sapiens, UniProt Q9UKE5)	enzyme activity	5
MYLK4 (Homo sapiens, UniProt Q86YV6)	enzyme activity	1
DAPK1 (Homo sapiens, UniProt P53355)	enzyme activity	20
CAMK1 (Homo sapiens, UniProt Q14012)	enzyme activity	15
TGFBR1 (Homo sapiens, UniProt P36897)		16
TEK (Homo sapiens, UniProt Q02763)		49

Series 2
Target: MAP kinase-interacting serine/threonine-protein kinase 2 (MKNK2, Homo sapiens, UniProt Q9HBH9)
UniProt Q9HBH9, sequence (whole entry, looked up): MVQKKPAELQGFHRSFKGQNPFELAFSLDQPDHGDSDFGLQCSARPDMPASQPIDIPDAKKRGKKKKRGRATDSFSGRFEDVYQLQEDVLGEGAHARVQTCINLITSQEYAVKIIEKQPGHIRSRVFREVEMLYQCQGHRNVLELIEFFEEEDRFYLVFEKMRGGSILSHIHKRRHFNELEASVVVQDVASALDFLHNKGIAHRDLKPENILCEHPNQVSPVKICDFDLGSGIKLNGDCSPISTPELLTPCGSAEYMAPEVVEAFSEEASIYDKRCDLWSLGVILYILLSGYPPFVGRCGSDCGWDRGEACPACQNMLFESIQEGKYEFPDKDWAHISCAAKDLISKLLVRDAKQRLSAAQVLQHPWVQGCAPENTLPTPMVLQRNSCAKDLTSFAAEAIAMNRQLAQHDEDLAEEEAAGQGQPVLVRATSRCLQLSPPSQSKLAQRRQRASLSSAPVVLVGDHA
Observed: enzyme activity
Mode: inhibitor
Tested at: 0.5 µM
Relative to: control
SMILES	remaining activity [%]
CCOc1nc(NC(=O)Cc2cc(OC)ccc2OC)cc(N)c1C#N	106
c1ccc(-c2cnc(Nc3ccc(OCCN4CCCC4)cc3)s2)cc1	18.6
COc1cc2ncnc(Nc3ccc(O)c(Br)c3)c2cc1OC	18
C[C@@H]1CCN(C(=O)CC#N)C[C@@H]1N(C)c1ncnc2[nH]ccc12	97.4
O=C1C(Cl)=C(N2C(=O)CCC2=O)C(=O)c2ccccc21	84.5
N#Cc1c(NC(=O)c2cccc3ccccc23)sc2c1CCCC2	106
O=C(NC(NC(=S)Nc1ccc(F)c([N+](=O)[O-])c1)C(Cl)(Cl)Cl)C(c1ccccc1)c1ccccc1 (stereo not shown)	135
N#C/C(=C\c1ccc(O)c(O)c1)C(=O)NCc1ccccc1	87.9
CCN(CC)CCNC(=O)c1c(C)[nH]c(/C=C2\C(=O)Nc3ccc(F)cc32)c1C	99.3
O=c1cc(-c2cccc3c2Sc2ccccc2S3)oc(N2CCOCC2)c1	117
Cc1cc2ncc(-c3ccccc3)nc2cc1C	94.8
Cc1nc2cc3nc(-c4cccs4)cnc3cc2n1C	108
CCN(CC)CCNC(=O)c1c(C)[nH]c(/C=C2\C(=O)Nc3ccc(Cl)cc32)c1C	88.8
Cc1cn(-c2cc(NC(=O)c3ccc(C)c(Nc4nccc(-c5cccnc5)n4)c3)cc(C(F)(F)F)c2)cn1	103
Nc1cccc(-c2cc3c(Oc4cccc(O)c4)ncnc3[nH]2)c1	67.5
COc1cc2ncnc(Nc3cccc(Cl)c3)c2cc1OC	39.5
CCN(CC)C(=O)c1ccc(Nc2nc(OCC3CCCCC3)c3[nH]cnc3n2)cc1	89.3
CN(C)C[C@H]1CCn2c(c(C3=C(c4cn(C)c5ccccc45)C(=O)NC3=O)c3ccccc32)C1	85.8
COc1cc2c(cc1OC)-c1[nH]nc(Nc3cccc(F)c3)c1C2	91.5
CN([C@@H](Cc1ccc(OS(=O)(=O)c2cccc3cnccc23)cc1)C(=O)N1CCN(c2ccccc2)CC1)S(=O)(=O)c1cccc2cnccc12	104
O=C(Nc1cccc(Nc2nccc(Nc3cccc(C(F)(F)F)c3)n2)c1)C1CC1	91.2
Ic1cccc(CSc2nnc(-c3ccncc3)o2)c1	91.5
Cn1nc2c3c(cccc31)C(=O)c1ccccc1-2	94.1
O=C1c2ccccc2-c2n[nH]c3cccc1c23	59.1
c1ccc(-c2[nH]ncc2-c2ccnc3ccccc23)nc1	81.9

Series 3
Compound: O=C1CCC(N2Cc3cc(C4CCN(Cc5ccccc5)CC4)ccc3C2=O)C(=O)N1 (stereo not shown)
species	sample	route	dose	time	plasma concentration
male Sprague Dawley rats	plasma	intravenous	1 mg/kg	0.083 h	91.5 ng/mL
ICR mouse, male		intravenous	1 mg/kg	1 h	87.1 ng/mL
ICR mouse, male	plasma	oral	3 mg/kg	0.5 h	268 ng/mL and 283 ng/mL
male ICR mice	plasma	oral	3 mg/kg	2 h	119 ng/mL
Sprague Dawley rat, male	plasma	oral	3 mg/kg	0.5 h	49.7 ng/mL and 26.2 ng/mL and 70.7 ng/mL
ICR mouse, male	plasma	intravenous	1 mg/kg	0.5 h	98.3 ng/mL and 124 ng/mL
male Sprague Dawley rats	plasma	oral	3 mg/kg	6 h	12.3 ng/mL
ICR mouse, male	plasma	intravenous	1 mg/kg	8 h	8.24 ng/mL and 12.4 ng/mL
male Sprague Dawley rats	plasma	oral	3 mg/kg	8 h	7.09 ng/mL
ICR mouse, male	plasma	intravenous	1 mg/kg	6 h	18 ng/mL and 12.4 ng/mL

Series 4
Compound: CC(=O)C1=C(C)N(c2cccc(C(F)(F)F)c2)C(=O)N[C@@H]1c1ccc(C#N)nc1
Tested at: 1 µM
target	observed	method	remaining binding
LATS1 (Homo sapiens, UniProt O95835)	cell-free assay	competition with immobilised ligand	67.1%
CHEK1 (Homo sapiens, UniProt O14757)	cell-free assay	competition with immobilised ligand	73.2%
MAPK4 (Homo sapiens, UniProt P31152)	cell-free assay	competition with immobilised ligand	100%
EPHB3 (Homo sapiens, UniProt P54753)	cell-free assay	competition with immobilised ligand	100%
EPHB6 (Homo sapiens, UniProt O15197)	cell-free assay	competition with immobilised ligand	85%
CSNK1G2 (Homo sapiens, UniProt P78368)	cell-free assay	competition with immobilised ligand	94.6%
CDK11B (Homo sapiens, UniProt P21127)	cell-free assay	competition with immobilised ligand	100%
CSNK1G1 (Homo sapiens, UniProt Q9HCP0)	cell-free assay	competition with immobilised ligand	100%
Tyrosine-protein kinase ABL1, non-phosphorylated (ABL1, Homo sapiens, UniProt P00519, T315I)	cell-free assay	competition with immobilised ligand	100%
PAK5 (Homo sapiens, UniProt Q9P286)	cell-free assay	competition with immobilised ligand	96.2%
PIK3CA (Homo sapiens, UniProt P42336, E545K)	cell-free assay	competition with immobilised ligand	77.5%
PRKACB (Homo sapiens, UniProt P22694)	cell-free assay	competition with immobilised ligand	48.7%
BMPR1A (Homo sapiens, UniProt P36894)	binding	competition with immobilised ligand	100%
PRPF4B (Homo sapiens, UniProt Q13523)	cell-free assay	competition with immobilised ligand	100%
Tyrosine-protein kinase ABL1, phosphorylated (ABL1, Homo sapiens, UniProt P00519, F317I)	binding		100%
PLK3 (Homo sapiens, UniProt Q9H4B4)	cell-free assay	competition with immobilised ligand	84.2%
